Measurements from different studies.
Lines come from different studies, so protocols differ. ± marks the error that the study gave.

CC1(C)S[C@@H]2[C@H](NC(=O)[C@H](NC(=O)C3=C(O)C(c4ccccc4F)NC3=O)c3ccccc3)C(=O)N2[C@H]1C(=O)O (stereo partly drawn)  MIC (Escherichia coli; broth microdilution; Keio mutant JW0146-2; 18 h, ferric hydroxamate uptake gene): 12.5 µg/mL
O=[N+]([O-])c1ccc(C2=[N+]([O-])c3ccccc3N3CCCN=C23)cc1  MIC (Fusobacterium nucleatum): 0.06 to 0.125 µg/mL
CCCCCC(=O)NCCCC[C@H](NC(=O)CCCCC)C(=O)N[C@@H](CCCCNC(=O)CCCCC)C(=O)NCC(=O)NCC(=O)NCC(=O)N[C@@H](CS)C(=O)N[C@@H](CCCNC(=N)N)C(=O)N[C@@H](CCCCN)C(=O)N1CCC[C@H]1C(=O)N[C@@H](CS)C(=O)N[C@@H](CCCNC(=N)N)C(=O)N[C@@H](CCCCN)C(=O)N1CCC[C@H]1C(N)=O  MIC (Candida albicans; broth microdilution; fluconazole-resistant 56214, RPMI-1640; 48 h, 30 °C): 16 µM
CC[C@H](C)[C@H](NC(=O)[C@H](CCCNC(=N)N)NC(=O)[C@H](CC(=O)O)NC(=O)[C@H](CCCNC(=N)N)NC(=O)[C@H](CC(C)C)NC(=O)[C@H](CC(N)=O)NC(=O)[C@H](CCCNC(=N)N)NC(=O)[C@@H](N)Cc1ccccc1)C(=O)N[C@@H](CCCCN)C(=O)N[C@@H](CC(N)=O)C(=O)N[C@@H](CCCCN)C(=O)N[C@@H](Cc1ccccc1)C(=O)N[C@@H](CCC(=O)O)C(=O)N[C@@H](CC(N)=O)C(=O)N[C@@H](C)C(=O)N[C@@H](CC(C)C)C(=O)N[C@@H](CCCCN)C(=O)N[C@@H](CC(N)=O)C(=O)N[C@H](C(=O)N[C@H](C(=O)N[C@@H](CC(N)=O)C(=O)N[C@@H](CCCCN)C(=O)N[C@@H](CC(C)C)C(=O)N[C@@H](Cc1ccccc1)C(=O)N1CCC[C@H]1C(=O)O)[C@@H](C)CC)C(C)C  MIC (Micrococcus luteus; broth microdilution; ATCC 4698): 2.59 µM
O=c1n(CCNCCOS(=O)(=O)c2ccccc2)c(=O)n(S(=O)(=O)c2ccccc2)c(=O)n1S(=O)(=O)c1ccccc1  MIC (Alternaria solani; microbial growth, broth dilution): 32 µg/mL
COc1ccc(C2=[N+]([O-])c3ccccc3N3CCN=C23)cc1  MIC (Fusobacterium nucleatum): 0.06 to 0.125 µg/mL
CC[C@H](C)[C@H](NC(=O)[C@H](CCCNC(=N)N)NC(=O)[C@H](CO)NC(=O)[C@H](Cc1ccc(O)cc1)NC(=O)[C@@H](NC(=O)[C@@H](NC(=O)[C@H](C)NC(=O)CNC(=O)[C@H](CCCCN)NC(=O)[C@H](CCCCN)NC(=O)CCNC(=O)CCCCCNC(=O)[C@H](CCCNC(=N)N)NC(=O)CCCCCNC(=O)[C@H](CCCNC(=N)N)NC(=O)[C@H](CCCNC(=N)N)NC(=O)CCCCCNC(=O)[C@H](CCCNC(=N)N)NC(=O)[C@H](CCCNC(=N)N)NC(=O)CCCCCNC(=O)[C@H](CCCNC(=N)N)NC(=O)[C@H](CCCNC(=N)N)NC(=O)CCCCCNC(=O)[C@@H](N)CCCNC(=N)N)C(C)C)[C@@H](C)O)C(=O)N[C@@H](CO)C(=O)NCC(=O)N[C@@H](CCC(N)=O)C(=O)N[C@@H](Cc1ccc(O)cc1)C(=O)N[C@@H](CCCCN)C(=O)O  MIC (Escherichia coli; broth microdilution; ATCC 25922, Mueller-Hinton broth; 16 to 18 h, 37 °C): 6 µM
CCCCCCCC(=O)NCCCC[C@H](NC(=O)CCCCCCC)C(=O)N[C@@H](CCCCNC(=O)CCCCCCC)C(=O)NCC(=O)NCC(=O)NCC(=O)N[C@@H](CS)C(=O)N[C@@H](CCCNC(=N)N)C(=O)N[C@@H](CCCCN)C(=O)N1CCC[C@H]1C(N)=O  MIC (Candida albicans; broth microdilution; SP 3903, RPMI-1640; 48 h, 30 °C): > 128 µM
CC[C@H](C)[C@H](NC(=O)[C@H](C)NC(=O)[C@@H](NC(=O)[C@H](CC(=O)O)NC(=O)[C@H](CCCCN)NC(=O)[C@H](CO)NC(=O)[C@@H](NC(=O)[C@H](CC(N)=O)NC(=O)[C@H](C)NC(=O)[C@@H](NC(=O)[C@H](CCC(=O)O)NC(=O)[C@H](CCCCN)NC(=O)[C@@H](NC(=O)[C@@H](NC(=O)[C@H](Cc1c[nH]cn1)NC(=O)[C@H](CCCCN)NC(=O)[C@@H](NC(=O)[C@H](CCCCN)NC(=O)[C@H](CCCCN)NC(=O)[C@@H](NC(=O)[C@H](CC(C)C)NC(=O)[C@H](CCCCN)NC(=O)[C@H](CC(N)=O)NC(=O)[C@H](Cc1ccccc1)NC(=O)[C@H](CCCNC(=N)N)NC(=O)[C@H](CCCCN)NC(=O)[C@H](CCCNC(=N)N)NC(=O)[C@H](Cc1ccccc1)NC(=O)CN)C(C)C)C(C)C)[C@@H](C)O)[C@@H](C)CC)[C@@H](C)O)C(C)C)C(C)C)C(=O)N[C@H](C(=O)N[C@@H](C)C(=O)NCC(=O)N[C@@H](CO)C(=O)NCC(=O)N[C@H](C(=O)N[C@@H](C)C(=O)N[C@H](C(=O)NCC(=O)N[C@@H](C)C(=O)N[C@@H](C)C(=O)N[C@@H](CCSC)C(N)=O)C(C)C)C(C)C)C(C)C  MIC (Listeria monocytogenes; DSM 20600, CAMHB): > 1020 µg/mL
CC[C@H](C)[C@H](NC(=O)[C@H](Cc1c[nH]c2ccccc12)NC(=O)[C@H](Cc1ccc(O)cc1)NC(=O)[C@H](CCCCN)NC(=O)[C@H](CC(C)C)NC(=O)[C@@H](N)CO)C(=O)N[C@@H](CCCNC(=N)N)C(=O)N[C@@H](Cc1ccc(O)cc1)C(=O)N[C@@H](CCCCN)C(=O)N[C@@H](CCCNC(=N)N)C(=O)N[C@@H](CCC(N)=O)C(=O)NCC(=O)N[C@@H](C)C(=O)N[C@@H](C)C(=O)N[C@@H](CCCNC(=N)N)C(=O)N[C@@H](Cc1ccccc1)C(N)=O  MIC (Listeria monocytogenes; broth dilution; KCTC 13064): 25 µM
CC[C@H](C)[C@@H]1NC(=O)[C@@H]([C@@H](C)O)NC(=O)CNC(=O)[C@H](CC(=O)O)NC(=O)CNC(=O)[C@H](CC(=O)O)NC(=O)CNC(=O)[C@H]2CCCCN2C(=O)[C@@H](NC(=O)[C@H](CC(=O)O)NC(=O)/C=C/CCCCCCCCCC(C)C)CNC(=O)[C@@H]2CCCN2C1=O  MIC (Staphylococcus aureus; broth microdilution; BR-VRSA strain 880, Mueller-Hinton broth, Mg2+ 10 mg/L; 16 h, with: Ca2+ 2.5 mM): 4 µg/mL
CCCCCCCCCCCC(=O)NCCCC[C@H](NC(=O)CCCCCCCCCCC)C(=O)N[C@@H](CCCCNC(=O)CCCCCCCCCCC)C(=O)NCC(=O)NCC(=O)NCC(=O)N[C@@H](CS)C(=O)N[C@@H](CCCNC(=N)N)C(=O)N[C@@H](CCCCN)C(=O)N1CCC[C@H]1C(=O)N[C@@H](CS)C(=O)N[C@@H](CCCNC(=N)N)C(=O)N[C@@H](CCCCN)C(=O)N1CCC[C@H]1C(N)=O  MIC (Candida albicans; broth microdilution; 17546, RPMI-1640; 48 h, 30 °C): > 128 µM
O=C1NC2(CC2)COc2ncc(F)cc2[C@H]2COCCN2c2ccn3ncc1c3n2  neutrophils (Sprague-Dawley rat, male, blood; oral, 5 mg/kg/day, end of treatment, 4-week repeated-dose toxicity; relative to: leukocytes): 19 ± 9%
CCCCCCCCCC(=O)NCCCC[C@H](NC(=O)CCCCCCCCC)C(=O)N[C@@H](CCCCNC(=O)CCCCCCCCC)C(=O)NCC(=O)NCC(=O)NCC(=O)N[C@@H](CS)C(=O)N[C@@H](CCCNC(=N)N)C(=O)N[C@@H](CCCCN)C(=O)N1CCC[C@H]1C(=O)N[C@@H](CS)C(=O)N[C@@H](CCCNC(=N)N)C(=O)N[C@@H](CCCCN)C(=O)N1CCC[C@H]1C(N)=O  MIC (Candida albicans; broth microdilution; 58288, RPMI-1640; 48 h, 30 °C): 64 µM
CC[C@H](C)[C@H](NC(=O)[C@H](CCCCN)NC(=O)[C@H](CCCCN)NC(=O)[C@H](Cc1ccccc1)NC(=O)[C@H](Cc1ccccc1)NC(=O)[C@H](CCCCN)NC(=O)[C@H](CCCCN)NC(=O)[C@H](Cc1ccccc1)NC(=O)[C@H](CCCNC(=N)N)NC(=O)[C@@H](N)CCCCN)C(=O)N[C@@H](CCCCN)C(=O)N[C@@H](CCCCN)C(=O)N[C@@H](CO)C(=O)N[C@H](C(=O)N[C@@H](CCCCN)C(=O)N[C@@H](CCCCN)C(=O)N[C@@H](CCCNC(=N)N)C(=O)N[C@H](C(=O)N[C@@H](CCCCN)C(=O)N[C@@H](CCCCN)C(=O)N[C@@H](CC(C)C)C(=O)N[C@@H](Cc1ccccc1)C(=O)N[C@@H](CCCCN)C(=O)N[C@@H](CCCCN)C(=O)N1CCC[C@H]1C(=O)N[C@@H](CCCNC(=N)N)C(=O)N[C@H](C(=O)N[C@H](C(=O)N1CCC[C@H]1C(=O)N[C@H](C(=O)N[C@@H](CO)C(=O)N[C@H](C(=O)N1CCC[C@H]1C(=O)N[C@@H](Cc1ccccc1)C(=O)O)[C@@H](C)CC)[C@@H](C)CC)[C@@H](C)CC)C(C)C)C(C)C)C(C)C  MIC (Escherichia coli; E24; 20 h, with: 200 mM NaCl): 4 µg/mL
